Measurements collected from several papers.
Parts stem from different laboratories: compare values within a part only. Positions count from the first letter of the parent shown.
Sequence of UniProt P62837 (whole entry, looked up): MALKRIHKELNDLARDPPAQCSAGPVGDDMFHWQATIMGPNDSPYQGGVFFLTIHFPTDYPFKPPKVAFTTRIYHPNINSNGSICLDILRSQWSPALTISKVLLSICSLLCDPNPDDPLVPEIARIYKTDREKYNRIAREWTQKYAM
Sequence of UniProt Q8WVD5 (whole entry, looked up): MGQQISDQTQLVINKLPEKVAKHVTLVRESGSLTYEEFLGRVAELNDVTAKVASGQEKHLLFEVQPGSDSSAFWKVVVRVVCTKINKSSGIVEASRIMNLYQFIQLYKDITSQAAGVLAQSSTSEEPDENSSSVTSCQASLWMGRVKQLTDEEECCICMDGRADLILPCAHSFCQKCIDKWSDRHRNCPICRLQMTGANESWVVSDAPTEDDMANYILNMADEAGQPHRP

Sample 1 — method: RNA Bind-n-Seq; molecule type: RNA; sample: in vitro; concentration: 20 nM; notes: 6-mer, flanks averaged, single round; added: 150 mM KCl; relative to: input library; reading: higher = stronger binding
Target: TAR DNA-binding protein 43, full length, His tag (TARDBP, Homo sapiens, UniProt Q13148, residues 1-414)
Sequence	6-mer enrichment (R)
CCGGAC	0.944
AUUCCU	0.536
UAACAG	0.718
CGUUCG	0.712
CGGCUU	0.736
CCUAUG	0.677
UUCCUU	0.591
AUAUGG	0.95

Sample 2 — method: EMSA with sequencing; molecule type: double-stranded DNA, one strand shown; sample: in vitro; concentration: 10 and 20 nM; relative to: negative control set to 0; reading: higher = stronger binding
Target: Hepatocyte nuclear factor 3-alpha (Foxa1, Mus musculus, UniProt P35582, residues 1-468, full length assumed)
Notes: whole designed probe, mean of two concentrations, ends assumed
Constant ends, left off below: GTGAGCGGTGCCCATTGATGGGGAAC … TTTCACTGGGATCGTGGGGAC
Construct (chain): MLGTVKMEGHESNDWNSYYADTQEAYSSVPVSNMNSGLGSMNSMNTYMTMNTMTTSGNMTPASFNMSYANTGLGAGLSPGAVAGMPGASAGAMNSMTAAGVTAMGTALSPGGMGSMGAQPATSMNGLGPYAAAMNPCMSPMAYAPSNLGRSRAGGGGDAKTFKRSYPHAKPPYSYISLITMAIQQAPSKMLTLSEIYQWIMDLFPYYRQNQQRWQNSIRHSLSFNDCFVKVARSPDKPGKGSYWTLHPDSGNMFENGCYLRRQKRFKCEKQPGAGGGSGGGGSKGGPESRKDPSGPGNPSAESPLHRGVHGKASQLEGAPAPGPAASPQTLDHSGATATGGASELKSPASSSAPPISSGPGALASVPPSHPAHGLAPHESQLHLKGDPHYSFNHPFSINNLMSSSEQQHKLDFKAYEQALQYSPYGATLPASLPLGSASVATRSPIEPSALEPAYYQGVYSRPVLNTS
Sequence	normalised bound fraction [ratio]
CTTCCCTAGCCCTGACTTCCCAAGCCTTAGTCATCACCCTCTCTCCCACCCAGGGCTCAGCACAGTACCTGGAACAGTCAAGCCCTCAATAAATGTTTACTGAGTGCATTAAAAAAAAAAAAAAGATTTTAATGAGTCATGCTTTAACTGAAGATTTTAGTGTAGTCAGTCATTGGGCCTTGGATGCCAAAGG	0.13
TGGAGGAAAATTTGGGAACATTTATAAATTATTTTCCTCTTATGATATGTGTAAGTGATGTCTAACTTAAGGAGTTTGCCTGTTATATTGTTCTTGTTTACTTTAATCTAGTGAAAATCCAGAAAGTACCAGGATTACTTTTGCAACCAGAAAAGTCCCTGGGGCTTACTCTGTACAGAGAGTAAACAGTCCC	0.454
GTAACTGTGAGATTTCTGAATTTACAACCTCCCTACAGGAAGTACCAGGTGGCCACGAAAGGCAGCATGGTCCCCATCTCTAATTAAGCTAATGTAAACAAGTGCCACATCATCGCGCCAAACCACAGATGAAACTGACGCCAATTTGGATTCTTTGGGTGGATGGATCTCCCAGAACTTCCAGCTGGCTAGA	0.354
AAACTTCCTGTCCCATCACCCAGCATCAACACCATTAACCAGTCATGACTAATCCTGCCCCATCCACGTCCCCAGCCTTTCCCCGACTTCTCATATTTGCTTTGAAACAAATCCCAGATATAATATCATTTCATTGTGAGGTTGTTGTGAGGATTAACTAAAAGCATGCCTATCATATGGGTCTCTAAAAGAT	0.256
CCTTGTATTCTTCAGATCTCATTTTCCCCCAAATTTCTGCAGTGGTTGGCTTCCATTTCAGCATCAGTCACGAAATCTTGAAGGTCAGACACAGTAATCTGGGAAGGACATAAAATTAAGTGATTTGGGCGTAGTTTTGAGTCTCACAACTTTAACAGGGATGAGTCATACATTAAAGTATGTCGAAATAAAT	-0.0119
TGCTTTGTTTTTGAGAGAAGGTTTCATCTGAAACAGAAACAGACACACATACCACGAGCCCGATTACTATAGAACCGAAGAGACCTTTCCAGCAGATTACACTTCGGATGTAAAATGGCAATTTGACATAGACTAACAGTGTGATGTGAGCATCTGCGTAAAAAGGCGACATATGGAGCATGCCCAGTGTGGG	0.0302
ATCTTCCCCCTCTTCCTTGCCCCACCAGCTCACCTTCCCGGGTTGTTTACTTTGAGCAAAGTAAACAAAGCCGGCATTCGTTAACCCTCTTCTGGCGCAAACTGCCAGAGCAAACAGATGAATCATGGTCCTTTGGCGACGCCAGGCTCCGGGAGAGCAAAGCACCGTGTCAGGGCCATGATCCGGGGTGGCC	0.524
ACAGCCAAAAATAAAATTGATTTGGAATGTGATTTACCCAGATAAATCATCAGCTCAAGGGACTGCTTGGAGAGAAGGAGAGCTGACCTATGCCTGTTGACTCACCATGTAAACACAGTCATGGTAATTTACTAGCAGCAAGACCTGTTTCCTGCTGAGCAGTTCCAGTCTGAGCTCCAGAGCTAGACGCAGA	0.145

Sample 3 — target: CCNE2, cyclin fold, Cln2 fusion (human); method: yeast growth competition, sequencing; sample: yeast; notes: strong parent motif; relative to: not given; reading: higher = stronger binding
Starting sequence: viral docking peptide; KGVKRKLFAEDSS; partner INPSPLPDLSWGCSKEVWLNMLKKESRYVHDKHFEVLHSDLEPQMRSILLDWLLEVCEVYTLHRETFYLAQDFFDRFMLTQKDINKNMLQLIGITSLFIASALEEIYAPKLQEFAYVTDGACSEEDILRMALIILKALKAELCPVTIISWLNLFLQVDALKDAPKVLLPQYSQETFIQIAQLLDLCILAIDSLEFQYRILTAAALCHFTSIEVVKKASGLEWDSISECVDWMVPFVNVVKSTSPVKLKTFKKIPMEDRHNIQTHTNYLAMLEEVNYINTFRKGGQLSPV
Change	normalised enrichment score
E10W	3.66
K6H	2.24
F8P	0.667
R5P	0.125
G2C	6.76
K4P	1.83
F8V	0.412
D11L	5.3
L7Q	0.44
D11S	6.61
D11N	6.14
R5G	-0.158
K4Y	1.29
R5S	0.44
K6M	5.15
D11P	6.9
K6T	4.34
L7T	0.539

Further values, each from its own experiment
Substance	target or system	assay	test system	conditions	how to read	measurement	result
UFL1 (Homo sapiens, UniProt O94874)	MYH14 (Homo sapiens, UniProt Q7Z406)	cross-linking MS	cell fractions	added: DHSO		cross-linked residues	D147 to E1419
RNF141 RING domain (UniProt Q8WVD5)	UBE2D2 UBC core domain (UniProt P62837)	yeast two-hybrid	yeast	mostly zero background	relative to: not given, higher = stronger interaction	lacZ reporter activity	0
IMMT (Homo sapiens, UniProt Q16891)	APOO (Homo sapiens, UniProt Q9BUR5)	cross-linking MS		hits only		interaction screen	cross-linked
DEK (Homo sapiens, UniProt P35659)	ISY1 (Homo sapiens, UniProt Q9ULR0)	cross-linking MS	cell fractions	added: DSSO		cross-linked residues	K111 to K259

Repeated from above (sample 3):
Change	normalised enrichment score
R5P	0.125
D11P	6.9
R5G	-0.158
